Measurements from different studies.
Compare with care: the assays were run in different laboratories.
Organism: Pseudomonas aeruginosa

SMILES	assay	test system	conditions	MIC
CN[C@H](CC(C)C)C(=O)N[C@H]1C(=O)N[C@@H](CC(N)=O)C(=O)N[C@H]2C(=O)N[C@H]3C(=O)N[C@H](C(=O)N[C@H](C(=O)O)c4cc(O)cc(O)c4-c4cc3ccc4O)[C@H](O)c3ccc(c(Cl)c3)Oc3cc2cc(c3O[C@@H]2O[C@H](CO)[C@@H](O)[C@H](O)[C@H]2O[C@H]2C[C@](C)(NCc3ccc(OCc4cn(CCCCC(=O)N[C@H](C(=O)N[C@@H](CCN)C(=O)N[C@H]5CCNC(=O)[C@H]([C@@H](C)O)NC(=O)[C@H](CCN)NC(=O)[C@H](CCN)NC(=O)[C@H](CC(C)C)NC(=O)[C@@H](CC(C)C)NC(=O)[C@H](CCN)NC5=O)[C@@H](C)O)nn4)c(OC)c3)[C@H](O)[C@H](C)O2)Oc2ccc(cc2Cl)[C@H]1O	broth microdilution	ATCC 35218, cation-adjusted Mueller-Hinton broth	–	6 µM
CCCCCCCC(=O)N[C@@H](CCN)C(=O)N[C@H](C(=O)N[C@@H](CCN)C(=O)N[C@H]1CCNC(=O)[C@H]([C@@H](C)O)NC(=O)[C@H](CCN)NC(=O)[C@H](CCN)NC(=O)[C@H](Cc2cccc(F)c2)NC(=O)[C@@H](CC(C)C)NC(=O)[C@H](CCN)NC1=O)[C@@H](C)O	broth microdilution	colistin-resistant isolates	–	1 to 2 µg/mL
CC[C@H](C)[C@H](NC(=O)[C@@H](CCCNC(=N)N)NC(=O)[C@H](CCCNC(=N)N)NC(=O)[C@@H]1CCCN1C(=O)[C@@H]1CCCN1C(=O)[C@H](CCCNC(=N)N)NC(=O)[C@@H]1CCCN1C(=O)[C@H](CCCNC(=N)N)NC(=O)[C@@H]1CCCN1C(=O)[C@H](Cc1ccccc1)NC(=O)[C@H](Cc1ccc(O)cc1)NC(=O)[C@@H]1CCCN1C(=O)[C@@H]1CCCN1C(=O)[C@H](CCCCN)NC(=O)[C@H](CC(=O)O)NC(=O)[C@@H](N)C(C)C)C(=O)N[C@@H](Cc1ccc(O)cc1)C(=O)N[C@@H](CC(N)=O)C(=O)N[C@H](CCCNC(=N)N)C(N)=O	broth microdilution	DSM 1117	18 h, 37 °C, 25% MHB2	> 128 µg/mL
CCn1c(-c2ccc(-c3ccc(F)cc3)cc2)c(-c2ccc(-c3ccc(F)cc3)cc2)n(CC)c1=[Se]	broth microdilution	carbapenem-resistant BAA-2108	24 h	> 40 µM
C#CCOc1ccc(CN[C@@]2(C)C[C@H](O[C@H]3[C@H](Oc4c5cc6cc4Oc4ccc(cc4Cl)[C@@H](O)[C@@H](NC(=O)[C@@H](CC(C)C)NC)C(=O)N[C@@H](CC(N)=O)C(=O)N[C@H]6C(=O)N[C@H]4C(=O)N[C@H](C(=O)N[C@H](C(=O)O)c6cc(O)cc(O)c6-c6cc4ccc6O)[C@H](O)c4ccc(c(Cl)c4)O5)O[C@H](CO)[C@@H](O)[C@@H]3O)O[C@@H](C)[C@H]2O)cc1OC	broth microdilution	ATCC 10145, cation-adjusted Mueller-Hinton broth	18 to 20 h, 37 °C, 0.002% polysorbate 80	> 128 µg/mL
CC[C@H](C)[C@H](NC(=O)CNC(=O)[C@H](CC(=O)O)NC(=O)[C@H](CCCNC(=N)N)NC(=O)[C@@H](NC(=O)[C@H](Cc1c[nH]cn1)NC(=O)[C@H](CCC(N)=O)NC(=O)CNC(=O)[C@@H](NC(=O)[C@H](CCCNC(=N)N)NC(=O)[C@H](CCC(=O)O)NC(=O)[C@@H](NC(=O)[C@H](CCCCN)NC(=O)[C@H](CCCCN)NC(=O)[C@H](Cc1ccccc1)NC(=O)[C@@H](NC(=O)[C@H](CCCCN)NC(=O)[C@H](Cc1c[nH]c2ccccc12)NC(=O)[C@@H](N)CCCCN)[C@@H](C)CC)[C@@H](C)CC)C(C)C)C(C)C)C(=O)N[C@H](C(=O)N[C@@H](CCCCN)C(=O)N[C@@H](C)C(=O)NCC(=O)N[C@@H](CO)C(=O)N[C@@H](C)C(=O)N[C@H](C(=O)N[C@@H](CCC(N)=O)C(=O)N[C@H](C(=O)N[C@H](C(=O)NCC(=O)N[C@@H](CCC(N)=O)C(=O)N[C@@H](C)C(=O)N[C@@H](C)C(=O)N[C@@H](C)C(=O)N[C@H](C(=O)N[C@@H](C)C(=O)N[C@@H](CCCCN)C(N)=O)[C@@H](C)CC)C(C)C)C(C)C)C(C)C)[C@@H](C)CC	bacterial growth, broth microdilution	cation-adjusted Mueller Hinton broth	18 h, 37 °C	≤ 0.062 µM
CC[C@H](C)[C@H](NC(=O)[C@@H](CCCNC(=N)N)NC(=O)[C@H](CCCNC(=N)N)NC(=O)[C@@H]1CCCN1C(=O)[C@@H]1CCCN1C(=O)[C@H](Cc1c[nH]c2ccccc12)NC(=O)[C@@H]1CCCN1C(=O)[C@H](CCCNC(=N)N)NC(=O)[C@@H]1CCCN1C(=O)[C@H](CC(C)C)NC(=O)[C@H](Cc1ccc(O)cc1)NC(=O)[C@@H]1CCCN1C(=O)[C@@H]1CCCN1C(=O)[C@H](CCCCN)NC(=O)[C@H](CC(=O)O)NC(=O)[C@@H](N)C(C)C)C(=O)N[C@@H](Cc1ccc(O)cc1)C(=O)N[C@@H](CC(N)=O)C(=O)N[C@H](CCCNC(=N)N)C(N)=O	broth microdilution	DSM 1117	18 h, 37 °C, 25% MHB2	64 µg/mL
C#CCOc1ccc(CN[C@@]2(C)C[C@H](O[C@H]3[C@H](Oc4c5cc6cc4Oc4ccc(cc4Cl)[C@@H](O)[C@@H](NC(=O)[C@@H](CC(C)C)NC)C(=O)N[C@@H](CC(N)=O)C(=O)N[C@H]6C(=O)N[C@H]4C(=O)N[C@H](C(=O)N[C@H](C(=O)NCC(N)=O)c6cc(O)cc(O)c6-c6cc4ccc6O)[C@H](O)c4ccc(c(Cl)c4)O5)O[C@H](CO)[C@@H](O)[C@@H]3O)O[C@@H](C)[C@H]2O)cc1OC	broth microdilution	ATCC 25922, cation-adjusted Mueller-Hinton broth	–	38 µM
CN[C@@H]1[C@H](O)[C@H](NC)[C@H]2O[C@]3(O)[C@H](O[C@@H]2[C@H]1O)O[C@H](C)C[C@H]3NC(=O)Cc1cc(Cl)ccn1	microbial growth, broth dilution	PAO1	–	> 200 µg/mL

Some of these lines once more:
SMILES	assay	test system	conditions	MIC
CN[C@H](CC(C)C)C(=O)N[C@H]1C(=O)N[C@@H](CC(N)=O)C(=O)N[C@H]2C(=O)N[C@H]3C(=O)N[C@H](C(=O)N[C@H](C(=O)O)c4cc(O)cc(O)c4-c4cc3ccc4O)[C@H](O)c3ccc(c(Cl)c3)Oc3cc2cc(c3O[C@@H]2O[C@H](CO)[C@@H](O)[C@H](O)[C@H]2O[C@H]2C[C@](C)(NCc3ccc(OCc4cn(CCCCC(=O)N[C@H](C(=O)N[C@@H](CCN)C(=O)N[C@H]5CCNC(=O)[C@H]([C@@H](C)O)NC(=O)[C@H](CCN)NC(=O)[C@H](CCN)NC(=O)[C@H](CC(C)C)NC(=O)[C@@H](CC(C)C)NC(=O)[C@H](CCN)NC5=O)[C@@H](C)O)nn4)c(OC)c3)[C@H](O)[C@H](C)O2)Oc2ccc(cc2Cl)[C@H]1O	broth microdilution	ATCC 35218, cation-adjusted Mueller-Hinton broth	–	6 µM
